Experimental data collected from several papers.
A part holds a random share of what one study measured. Substitutions count along the parent as printed.

Set 1
Target: CCNA2, cyclin fold, Cln2 fusion (human)
Technique: yeast growth competition, sequencing
Medium: yeast
Notes: strong parent motif
Baseline: not given
Direction: higher = stronger binding
Starting sequence: PKMYT1 docking peptide (human); SFEPRNLLSLFED; partner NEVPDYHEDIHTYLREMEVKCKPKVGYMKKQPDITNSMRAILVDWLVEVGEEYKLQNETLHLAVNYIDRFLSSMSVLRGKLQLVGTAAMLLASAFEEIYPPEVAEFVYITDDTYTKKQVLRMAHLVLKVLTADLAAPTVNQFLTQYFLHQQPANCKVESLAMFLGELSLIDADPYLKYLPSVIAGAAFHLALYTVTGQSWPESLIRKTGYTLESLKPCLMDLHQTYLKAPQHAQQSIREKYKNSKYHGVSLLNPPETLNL
Variant | normalised enrichment score
S1L | 3.92
F2L | 3.46
R5V | 0.932
S9Q | 2.16
S9C | 1.78
S1Y | 3.15
L7T | -1.16
L8M | 2.79
D13L | 2.4
D13R | 3.21
L10W | 2.32
F11S | -0.328
N6M | -0.143
P4V | -0.656
L8F | 1.18
L10E | 3.08
N6Q | 0.842
L10V | 1.58
N6E | 0.579
L7D | -0.812
S9W | 1.79
S9N | 1.94
E12Q | 2.06
E3F | 3.22
F11A | 0.115

Set 2
Target: ABI1, truncated, D143A, DHFR fusion (Arabidopsis thaliana)
Technique: DHFR PCA, deep sequencing
Medium: yeast
Notes: methotrexate growth selection, single substitutions
Added: (+)-ABA 2500 µM
Baseline: wild-type fitted maximum
Direction: higher = stronger binding
Starting sequence: PYL1, truncated, DHFR fusion (Arabidopsis thaliana); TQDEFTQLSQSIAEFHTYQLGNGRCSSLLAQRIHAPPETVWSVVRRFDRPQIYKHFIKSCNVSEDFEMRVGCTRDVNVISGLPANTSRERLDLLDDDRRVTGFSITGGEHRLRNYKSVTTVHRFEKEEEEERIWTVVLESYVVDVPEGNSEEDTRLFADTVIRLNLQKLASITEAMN; partner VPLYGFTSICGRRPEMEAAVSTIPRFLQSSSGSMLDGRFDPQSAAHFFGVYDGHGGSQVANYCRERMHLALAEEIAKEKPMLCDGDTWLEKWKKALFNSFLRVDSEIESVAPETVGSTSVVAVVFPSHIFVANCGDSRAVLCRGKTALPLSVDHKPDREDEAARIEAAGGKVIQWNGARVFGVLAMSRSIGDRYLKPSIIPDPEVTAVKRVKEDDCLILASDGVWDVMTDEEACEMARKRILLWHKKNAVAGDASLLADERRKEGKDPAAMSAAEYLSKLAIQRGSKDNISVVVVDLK
Variant | relative binding score
P146H | 71.9%
V137R | -2.8%
C60G | 59.3%
R132Q | 109%
R49S | 96.1%
L112I | 78.8%
A158D | 14%
K116L | 65%
L28W | 94.3%
E127G | 102%
G81R | 66.3%
M176W | 93.8%
K126G | 108%
T101E | 59.7%
D144A | 90.4%
N22A | 101%
E131V | 99.3%
E67R | 94.5%
R32F | 76.4%
K116S | 103%
H110S | 87.2%
R88C | 98.4%
R74T | 6.81%
Y141S | -6.17%
A170Q | 98.4%

Set 3
Target: Interferon regulatory factor 5, full length, phosphomimetic (IRF5, Homo sapiens, UniProt Q13568-2, residues 1-514, K96S/S451D/S453D/S456D/S462D)
Technique: protein-binding microarray
Molecule type: double-stranded DNA, one strand shown
Medium: in vitro
Concentration: 250 nM
Notes: 60-bp whole probe
Added: salmon DNA 0.4 mg/ml
Baseline: random background probes
Direction: higher = stronger binding
Shared flanks, not repeated: GCCTAGCAC … GTCTTGATTCGCTTGACGCTGCTG
Strand | log fluorescence
TCTCCTCTAGGTTCTCTGAGAGTGCTA | -0.117 z-score
GACGGTCTCGGTAACGGGACGTGCTAG | 0.261 z-score
TTAGATTTCAGTCCCGATTAGTGCTAG | 1.5 z-score
TAATTTTTTAGCTTCTCAATGTGCTAG | 0.617 z-score
GATGGTATTTGCCTGTGGTCGTGCTAG | 0.297 z-score
AGCTGTTTCTGTGTCACAGAGTGCTAG | 3.3 z-score
GACGATATCGCGTTTCGAGACGTGCTA | 1.84 z-score
GACGAACTGGGGTTTCGGGACGTGCTA | 1.68 z-score
GAAGGTTTCGGACTGGGGACGTGCTAG | 3.44 z-score
TTAGGTTTCGATCTCGGTTAGTGCTAG | 9.23 z-score
GACGGTTCCCTTTTCCTGAGGTGCTAG | 0.386 z-score
TCACCTGAATGAAAACATACTGTGCTA | 0.5 z-score
GACGATCTGGGGACTGGAGACGTGCTA | -0.492 z-score
TTAGGTCTCCTTCTCATTTAGTGCTAG | 0.0208 z-score
TTTGCTTTCTTTATGTACTCGTGCTAG | 2.81 z-score
CTGTGTGTCAGGTTTACTAGGGTGCTA | -0.506 z-score
AGTGTTTGCCCTATTTAAAAGTGCTAG | 0.101 z-score
TCAGATGTCAAACTCACACTGTGCTAG | -0.0818 z-score
TTAGGACTGGGAACTGGGTTAGTGCTA | -0.295 z-score
GACGGTCTCGGTTTCGTGACGTGCTAG | 1.19 z-score
TCATCTTTCACTGGTCCTACTGTGCTA | 3.02 z-score
GAATCTCCCATTATATTTTAGTGCTAG | 0.533 z-score
GACGGTATCGGGACTTGGGACGTGCTA | 1.02 z-score
CTGACCTTTTCCTGAGGCAGGTGCTAG | 0.124 z-score
GACGGTAACGGGTTTCGGGACGTGCTA | 2.07 z-score

Set 4
Target: CREB3L1, bZIP domain (human)
Technique: DHFR protein complementation
Medium: yeast
Notes: single substitutions, most at no-binding floor
Baseline: wild-type JUN-FOS pair
Direction: higher = stronger binding
Starting sequence: JUN, bZIP domain (human); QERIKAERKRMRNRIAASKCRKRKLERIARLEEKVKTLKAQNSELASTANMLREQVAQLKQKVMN; partner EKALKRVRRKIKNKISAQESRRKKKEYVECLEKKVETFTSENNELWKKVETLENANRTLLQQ
Variant | binding fitness [natural log]
L52N | -1.51
K34W | -1.11
K34R | -1.41
T48P | -1.52
E32F | -1.46
K39W | -1.46
Q41G | -1.48
A46V | -1.13
T37W | -1.31
M51R | -1.31
V56D | -1.63
T37N | -1.55
T48V | -1.35
E32H | -1.54
S47Q | -1.22
S43K | -1.43

Set 5
Target: RING finger protein unkempt homolog, zinc fingers 1-6, GST-SBP tag (UNK, Homo sapiens, UniProt Q9C0B0, residues 30-357)
Chain of UniProt Q9C0B0 (30-357, looked up): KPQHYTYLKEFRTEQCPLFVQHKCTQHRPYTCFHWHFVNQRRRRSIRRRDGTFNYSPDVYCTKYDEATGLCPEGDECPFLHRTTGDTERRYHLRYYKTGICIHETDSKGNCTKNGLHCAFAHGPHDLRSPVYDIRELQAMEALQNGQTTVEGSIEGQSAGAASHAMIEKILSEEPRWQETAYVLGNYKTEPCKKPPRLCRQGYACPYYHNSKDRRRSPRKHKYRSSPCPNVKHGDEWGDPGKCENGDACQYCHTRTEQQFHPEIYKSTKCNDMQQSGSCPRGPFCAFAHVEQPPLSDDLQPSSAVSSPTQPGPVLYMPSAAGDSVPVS
Technique: RNA Bind-n-Seq
Molecule type: RNA
Medium: in vitro
Concentration: not given
Notes: RNA with constant flanks, human and mouse sites, ends assumed
Baseline: input RNA pool
Direction: higher = stronger binding
Shared flanks, not repeated: GGGAGUUCUACAGUCCGACGAUC … CAACAGAGGAUUGAGCAUCA
Strand | bound/input enrichment
GAGAGCUUUAUUACCAGACAUGACCUUUCCGGAAAGGUUGUCAAUAUAGAUACAAACUCACUUAGAUCUUCCAUGAGGCCUGGCUUUGAAGACAUAAUCCGAAGAUGUAUCCAGAGGUUC | 0.318 ratio
ACGACAAAGAGGAUUGUGGAGAACGGUCAAGAAAGAGUAGAAGUUGAAGAAGAUGGGCAGUUAAAGUCCUUGACAAUAAAUGGUAAGGAGCACCUGCUACGCUUGGAUAACAAGUAACUC | 0.292 ratio
GAGAAGAAGCAGCAACUUCUUAGAGCGGCAACAGGAAAGGCCAUUUUAAAUGGAAUAGAUAGCAUUAACAAAGUGCUAGAACAUUUUCGGCGAAAAGGUAUAAACCAGCAUGUUCAAAAU | 0.249 ratio
UGCCCCCAGGUUGCGUGUACAGGCGAGUCCCUAUGCCCUGUCUACCUGUCUUGUUCUUACUCACUUUCUCCCUUCAUGCCACUGCCCCACCUCUCGCUUCCUAAGUCUAACCUCUGCGCA | 0.447 ratio
CCAAAAUCUAUUCUUCAGUUGCCAGAGACAGAACUGGGAGAAUAUUCCCUAGGGGGCUAUAGCAUUUCAUUUCUGAAGCAGCUUAUUGCUGGCAAGCUCCAGGAAUCUGUUCCAGACCCG | 0.316 ratio
CACAUUGGUGCUUUUCUUGUCUCUCUGCCUUCUGGAGAAAAGAUAACUUUUCUUGAUACUCCUGGACAUGCUGCCUUCUCAGCAAUGAGAGCCAGAGGAGCUCAGGUCACCGACAUUGUU | 0.121 ratio
UGGAUUAUAUGGGAAUGGCUUCAAGUCGGGUUCUAUGCGUCUGGGUAAAGACGCAAUCGUUUUUACCAAAAAUGGAGAAAGCAUGAGCGUGGGCCUUUUGUCUCAGACCUACUUGGAAGU | 0.334 ratio
UUUGAAAGAAAAAUACCAUGUCUCUAAGCCAACUUUAAUUGCUUAAAAGACAUUUUUAUUUAGUUGAAAAAUCUAGUUUUUUUUGUAAACUGUAUCAAAUCUGUAUAUGUUGUAAUAAAA | 15.1 ratio
UAUUAUUUAAAUUUUAUUUCUGCUAUUUCAAGAAGUAAACUGGAAGAUAUUGCAAAUGCAGCGUUAGCAGCUAGUGCAGUAACACAAGUAGCCAAGGUUUUUGACCAAUAUCUCAAUUUU | 1.4 ratio
UUACGUUUAAGACCUAGCCUUUGAUGUGGUAUUUAUGUAACGUUUGUACAGUGAUUUACUCUUAGUUUGUUACCUUUAUCACCUGUACAAUUGCACUAUUUAAAUGUACUCCUUCUUAAU | 1.34 ratio
UUACUUGAGAUGAACCUUAUGCAUGCGCCUCAAGUUGCAGAUGCUAUUCUAGGCAAUCAGAUGUUCACACAUUAUGACCGGGCUCAUAUUGCUCAACUGUGUGAAAAGGCUGGCCUACUG | 0.137 ratio
